Measured values pooled from the literature.
Lines come from different studies, so protocols differ.

SMILES	assay	test system	setting	endpoint	value
CCOc1c([C@H](C)n2nc(C)c3c(N)ncnc32)cc(Cl)c(F)c1[C@@H]1CNC(=O)C1	item: QRS >100 to ≤110 ms	previously treated B-cell malignancy	oral, 45 mg once daily, baseline below thresholds	patients	0%
O=C(Nc1nc2cccc(-c3ccc(CN4CCS(=O)(=O)CC4)cc3)n2n1)C1CC1	–	rheumatoid arthritis patients	oral, 100 mg twice daily, 4 weeks, TEAE regardless of relatedness	patients with Vascular disorders	0%
CNC(=O)c1ccc(-c2cnc3ncc(Cc4ccc5ncccc5c4)n3n2)cc1F	item: Anemia, all grades	cancer patients	oral, dose not given, dose escalation, any causality	patients with adverse event	18%
COc1cc(Nc2ncc3c(n2)-c2ccc(Cl)cc2C(c2c(F)cccc2OC)=NC3)ccc1C(=O)O	item: Pruritus, all grades	cancer patients, phase 1/2	oral, dose not given, together with: pembrolizumab	patients with adverse event	21%
CNC(=O)c1cc(Oc2ccc(NC(=O)Nc3cc(C(C)(C)C)nn3-c3ccc4ncccc4c3)c(F)c2)ccn1	–	patients	oral, dose not given, cycles 1 and 2, High Cmax subgroup	patients with grade 3 musculoskeletal disorders	28%
C[C@@H](Nc1cc(F)cc(F)c1)c1cc(C(=O)N(C)C)cc2c(=O)cc(N3CCOCC3)oc12	item: Pyrexia	advanced solid tumour patients	oral, dose not given, dose expansion	patients discontinuing for AE	5%
Cc1cc(NC2CCN(C(=O)OC3CCN(C(=O)/C=C/CN(C)C)C3)CC2)n2ncc(C(C)C)c2n1 (centres unmarked)	–	patients with advanced solid tumours	dose not given, QD arm, any grade	patients with Anemia	30%
Cc1cc(-c2nnc(N)nc2-c2ccc(F)cc2)cc(Cl)n1	item: Colitis	IO-naive colorectal cancer patients	oral, dose not given, treatment-related, grade 2	patients with immune-mediated AE	0%

Repeated from above:
SMILES	assay	test system	setting	endpoint	value
CCOc1c([C@H](C)n2nc(C)c3c(N)ncnc32)cc(Cl)c(F)c1[C@@H]1CNC(=O)C1	item: QRS >100 to ≤110 ms	previously treated B-cell malignancy	oral, 45 mg once daily, baseline below thresholds	patients	0%
